Measured values gathered from unrelated publications.
Each line is one published result; not all experiments were run side by side. ≈ marks a conversion by molar mass, not a printed value.
Ubiquitin carboxyl-terminal hydrolase 39 ZnF-UBD domain: Ubiquitin carboxyl-terminal hydrolase 39, ZnF-UBD domain (Homo sapiens, UniProt Q53GS9)
Sequence of UniProt Q53GS9 (whole entry, looked up): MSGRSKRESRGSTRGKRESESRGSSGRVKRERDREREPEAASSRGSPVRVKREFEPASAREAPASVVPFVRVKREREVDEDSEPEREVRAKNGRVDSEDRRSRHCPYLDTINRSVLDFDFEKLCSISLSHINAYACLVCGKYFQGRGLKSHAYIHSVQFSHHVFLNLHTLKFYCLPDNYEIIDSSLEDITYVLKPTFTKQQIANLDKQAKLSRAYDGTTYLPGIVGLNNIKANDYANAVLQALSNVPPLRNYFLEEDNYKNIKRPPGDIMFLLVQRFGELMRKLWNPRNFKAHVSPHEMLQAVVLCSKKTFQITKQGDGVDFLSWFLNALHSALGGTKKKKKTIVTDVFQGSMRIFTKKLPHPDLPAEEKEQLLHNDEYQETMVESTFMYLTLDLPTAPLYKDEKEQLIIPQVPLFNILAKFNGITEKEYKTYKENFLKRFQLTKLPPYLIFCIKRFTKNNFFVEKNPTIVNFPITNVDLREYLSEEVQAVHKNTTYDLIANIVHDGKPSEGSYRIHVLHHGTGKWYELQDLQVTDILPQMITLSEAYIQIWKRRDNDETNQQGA

SMILES | target or system | test | test system | conditions | scale | measurement | result
N[C@H](CC(=O)O)C(=O)O |  | binding, equilibrium dialysis LC-MS |  | 5 µM, thermostabilized A2AR-BRIL construct | baseline: no-protein control, direction not given | z-scored log2 fold change | 0.302
CCCCCCc1ccc(Oc2ccccc2C)c(O)c1 | Mycobacterium tuberculosis |  | mouse, rapid infection model, spleen | oral, 200 mg/kg once daily, co-solvent formulation |  | CFU reduction | 0.99 log10 CFU
CNC(=O)c1ccc(-c2cnc3ncc(Cc4ccc5ncccc5c4)n3n2)cc1F | NLRP3 inflammasome (mouse) |  | mouse BMDM | 10 µM |  | inhibition | -12.1%
CCn1cc(-c2cc(Cn3ccoc3=N)cc3c2CCN([C@@H](C)c2cc(OC)ccn2)C3=O)c(C(F)(F)F)n1 | HCC1195 | cell growth |  | 120 h |  | EC50 | 0.247 µM
CC(C)CC(=O)SCCNC(=O)CCNC(=O)[C@H](O)C(C)(C)COP(=O)(O)OP(=O)(O)OC[C@H]1O[C@@H](n2cnc3c(N)ncnc32)[C@H](O)[C@@H]1OP(=O)(O)O |  | binding, equilibrium dialysis LC-MS |  | 5 µM, thermostabilized A2AR-BRIL construct | baseline: no-protein control, direction not given | z-scored log2 fold change | -0.105
O=C(/C=C\n1cnc(-c2cc(C(F)(F)F)cc(C(F)(F)F)c2)n1)NNc1ccccn1 | human alphaherpesvirus 1 |  | K26 GFP, 3D skin equivalent, submerged |  | baseline: CC50 over IC50 | selectivity index | > 28.6
O=C(CO)[C@@H](O)[C@H](O)[C@H](O)CO |  | binding, equilibrium dialysis LC-MS |  | 5 µM, thermostabilized A2AR-BRIL construct | baseline: no-protein control, direction not given | z-scored log2 fold change | -1.54
CC(C)(C)Cn1c(N)nc2ccc(-c3[nH]c(C(C)(C)C)nc3-c3ccc(F)cc3)nc21 | NLRP3 inflammasome (mouse) |  | mouse BMDM | 10 µM |  | inhibition | 13.2%
Cc1cccc(C)c1N(CC(=O)Nc1ccc(-c2ncon2)cc1)C(=O)C1CCS(=O)(=O)CC1 | human alphaherpesvirus 1 |  | K26 GFP, 3D skin equivalent, submerged |  | baseline: CC50 over IC50 | selectivity index | > 37
O=C(O)CCc1nc2ncccn2n1 | Ubiquitin carboxyl-terminal hydrolase 39 ZnF-UBD domain |  |  |  |  | Kd | > 1000 µM
NC(=O)C1=CN([C@@H]2O[C@H](COP(=O)(O)OP(=O)(O)OC[C@H]3O[C@@H](n4cnc5c(N)ncnc54)[C@H](O)[C@@H]3O)[C@@H](O)[C@H]2O)C=CC1 |  | binding, equilibrium dialysis LC-MS |  | 5 µM, thermostabilized A2AR-BRIL construct | baseline: no-protein control, direction not given | z-scored log2 fold change | -4.67
Cc1ccc(C(=O)NC2CC2)cc1-n1ncc(C(=O)c2cccc(C#N)c2)c1N | NLRP3 inflammasome (mouse) |  | mouse BMDM | 10 µM |  | inhibition | -9.93%
Cn1cc(-c2ccc(-c3cncc(Cl)c3N3CCC4(CCNC4=O)CC3)cc2)cn1 | COLO 205 | gene expression, microarray, refers to: CCL20 mRNA |  | concentration not given, 2 h | baseline: untreated cells | log2 fold change | -2.54
C[S+]([O-])c1ccc(-c2nc(-c3ccncc3)c(-c3ccc(F)cc3)[nH]2)cc1 (centres unmarked) | iCell Cardiomyocytes (hiPSC-derived) | cellular impedance |  | concentration not given, 24 h | baseline: control | cell index | 103%
COc1cc(Nc2ncc3c(n2)-c2ccc(Cl)cc2C(c2c(F)cccc2OC)=NC3)ccc1C(=O)O | NLRP3 inflammasome (mouse) |  | mouse BMDM | 10 µM |  | inhibition | 57.4%
CNC(=O)c1ccccc1Sc1ccc2c(/C=C/c3ccccn3)n[nH]c2c1 | iCell Cardiomyocytes (hiPSC-derived) | CellTiter-Glo |  | concentration not given, 24 h | baseline: control | ATP level | 99.2%
COc1ccc(C=C2SC(=O)N(C(C)C(=O)O)C2=O)cc1 (centres unmarked) | Ubiquitin carboxyl-terminal hydrolase 39 ZnF-UBD domain |  |  |  |  | Kd | > 1000 µM
CN[C@H](CC(C)C)C(=O)N[C@H]1C(=O)N[C@@H](CC(N)=O)C(=O)N[C@H]2C(=O)N[C@H]3C(=O)N[C@H](C(=O)N[C@H](C(=O)O)c4cc(O)cc(O)c4-c4cc3ccc4O)[C@H](O)c3ccc(c(Cl)c3)Oc3cc2cc(c3O[C@@H]2O[C@H](CO)[C@@H](O)[C@H](O)[C@H]2O[C@H]2C[C@](C)(N)[C@H](O)[C@H](C)O2)Oc2ccc(cc2Cl)[C@H]1O | Streptococcus pneumoniae |  | penicillin-resistant, 10 isolates | serum 0% |  | MIC50 | 0.5 µg/mL (≈ 0.345 µM)
CCn1c(-c2nonc2N)nc2c(C#CC(C)(C)O)ncc(OC[C@H]3CCCNC3)c21 | iCell Cardiomyocytes (hiPSC-derived) | cellular impedance |  | concentration not given, 24 h | baseline: control | cell index | 91.2%
O=C(O)CCO |  | binding, equilibrium dialysis LC-MS |  | 5 µM, thermostabilized A2AR-BRIL construct | baseline: no-protein control, direction not given | z-scored log2 fold change | -0.0261
COc1cc(Nc2c(C#N)cnc3cc(OCCCN4CCN(C)CC4)c(OC)cc23)c(Cl)cc1Cl | iCell Cardiomyocytes (hiPSC-derived) | CellTiter-Glo |  | concentration not given, 24 h | baseline: control | ATP level | 91.1%
NC1(C(=O)N[C@@H](CCO)c2ccc(Cl)cc2)CCN(c2nc[nH]c3nccc2-3)CC1 | NLRP3 inflammasome (mouse) |  | mouse BMDM | 10 µM |  | inhibition | 22.4%
O=C[C@H](O)[C@H]1OC(=O)[C@@H](O)[C@H]1O |  | binding, equilibrium dialysis LC-MS |  | 5 µM, thermostabilized A2AR-BRIL construct | baseline: no-protein control, direction not given | z-scored log2 fold change | 0.238

A few entries again:
SMILES | target or system | test | test system | conditions | scale | measurement | result
Cc1ccc(C(=O)NC2CC2)cc1-n1ncc(C(=O)c2cccc(C#N)c2)c1N | NLRP3 inflammasome (mouse) |  | mouse BMDM | 10 µM |  | inhibition | -9.93%
CC(C)(C)Cn1c(N)nc2ccc(-c3[nH]c(C(C)(C)C)nc3-c3ccc(F)cc3)nc21 | NLRP3 inflammasome (mouse) |  | mouse BMDM | 10 µM |  | inhibition | 13.2%
